Measured values collected from several papers.
Each line is one published result; not all experiments were run side by side. ± marks the error that the study gave. Where no end group is shown, it is not given here. [ ]: non-standard residue; d: D form. The star is where a group is joined.

Molecule | cell line | test | system | conditions | scale | quantity | result
VV[dA]A (D-Ala3) | PC-12 | protection from Aβ1–42 toxicity, MTT | – | concentration not given, 6 h, Aβ to peptide ratio 1:5, together with: Aβ1–42 2 µM | baseline: untreated cells | cell viability | 70%
Cc1ccc(-n2c(SCC(=O)NNC(=O)Nc3ccccc3)nc3ccccc3c2=O)cc1 | HCT-116 | annexin V-FITC/PI flow cytometry | – | concentration not given, 24 h | – | necrotic cells | 3.69%
CN(C)CCCN=c1c2ccccc2n(C)c2[nH]c(=O)n(C)c(=O)c12 | NIH3T3 in HEY/NIH microtissues | fibroblast toxicity | – | chronic toxicity, unit not given | baseline: AC50 ATP over AC50 NanoLUC, day 7 | therapeutic window | 1.19
V[dI]IA (D-Ile2) | PC-12 | protection from Aβ1–42 toxicity, MTT | – | concentration not given, 6 h, Aβ to peptide ratio 1:1, together with: Aβ1–42 2 µM | baseline: untreated cells | cell viability | 76%
COc1cc(CNC(=O)CCCC/C=C/C(C)C)ccc1OCc1cn(-c2ccccc2F)nn1 | HCT-116 | SRB | – | 10 µM, 48 h | – | growth percent | 97.8%
C/C(=N\N=c1/[nH]c(C)c(/N=N/c2ccc(C)cc2)s1)c1ccccn1 | HEp-2 | cell growth or viability, SRB | – | 100 µg/mL, 48 h | – | inhibition | 71%
AKHRERMSQVM | A-1 fibroblasts | cell number increase | peptide | concentration not given, 3 d, 10% FCS | baseline: basal increase | growth-promoting activity | active
CC(C)[C@@H](CC[C@@H](C)[C@H]1CC[C@H]2[C@@H]3[C@H](O)C[C@H]4C[C@@H](NCCCNCCCCNCCCN)CC[C@]4(C)[C@H]3CC[C@]12C)OS(=O)(=O)O | MCF-10A 10 A.B2 expressing chimeric HER2 | proliferation and luminal apoptosis | – | concentration not given, 3D culture, together with: AP1510 1 µM | – | acinar morphogenesis | inhibited
CC(C)CCC[C@@H](C)[C@H]1CC[C@H]2[C@@H]3CC[C@H]4C[C@@H](O[C@@H]5O[C@H](COS(=O)(=O)O)[C@@H](O[C@H]6O[C@H](COS(=O)(=O)O)[C@@H](O[C@H]7O[C@H](COS(=O)(=O)O)[C@@H](O[C@H]8O[C@H](COS(=O)(=O)O)[C@@H](OS(=O)(=O)O)[C@H](OS(=O)(=O)O)[C@H]8OS(=O)(=O)O)[C@H](OS(=O)(=O)O)[C@H]7OS(=O)(=O)O)[C@H](OS(=O)(=O)O)[C@H]6OS(=O)(=O)O)[C@H](OS(=O)(=O)O)[C@H]5OS(=O)(=O)O)CC[C@]4(C)[C@H]3CC[C@]12C | U-87 MG | – | – | – | – | EC50 | 103000 ± 2950 nM
N=C(N)c1ccc(/N=N/Nc2ccc(C(=N)N)cc2)cc1 | mouse cultured hippocampal neurons | current clamp | – | 10 µM, together with: current injection | – | action potential firing frequency | no effect
VV[Aib]A (Aib3; Aib = CC(C)(N)C(=O)O) | PC-12 | protection from Aβ1–42 toxicity, MTT | – | concentration not given, 6 h, Aβ to peptide ratio 1:1, together with: Aβ1–42 2 µM | baseline: untreated cells | cell viability | 70.3%
CCn1c(-c2ccccc2)cs/c1=N/N=C(\C)c1ccccn1 | HEp-2 | cell growth or viability, SRB | – | 100 µg/mL, 48 h | – | inhibition | 68.1%
Cn1c(=O)c(F)c(Nc2ccc(I)cc2F)c2c(=O)n(C[C@@H](O)CO)cnc21 | NIH3T3 in SKOV/NIH microtissues | fibroblast toxicity | – | 168 h, chronic toxicity, unit not given | baseline: AC50 ATP over AC50 NanoLUC, day 7 | therapeutic window | 1.69
CC(=O)O[C@@]12CO[C@@H]1C[C@H](O)[C@@]1(C)C(=O)[C@H](O)C3=C(C)[C@@H](OC(=O)[C@H](O)[C@@H](NC(=O)OC(C)(C)C)c4ccccc4)C[C@@](O)([C@@H](OC(=O)c4ccccc4)[C@H]21)C3(C)C | T47D | RT-qPCR | – | IC50 concentration, 72 h plus 24 h recovery | baseline: untreated | GRPR mRNA level | 99.5 ± 2.95%
VV[dL]A (D-Leu3) | PC-12 | protection from Aβ1–42 toxicity, MTT | – | concentration not given, 6 h, Aβ to peptide ratio 1:10, together with: Aβ1–42 2 µM | baseline: untreated cells | cell viability | 73%
COc1ccc(CC2COc3cc(OC)c(OC)c(OC)c3C2=O)cc1O (stereo not shown) | 92-1 uveal melanoma cells | alamarBlue | – | 48 h | – | GI50 | > 100000 nM
Cc1cc(C)cc(/C=C/[C@]2(O)CC[C@H]3[C@@H]4CCc5cc(O)ccc5[C@H]4CC[C@@]32C)c1 | Ishikawa | alkaline phosphatase induction, agonist | – | concentration not given, 3 d | baseline: estradiol | relative stimulatory activity | 3.5 ± 0.7%
C#C[C@@]1(O)[C@@H](CO)O[C@@H](n2cc(Br)c3c(N)ncnc32)[C@@H]1O | NCI-H460 | cell growth or viability, SRB | – | 48 h | – | GI50 | 34 nM
[dL]VIA (D-Leu1) | PC-12 | protection from Aβ1–42 toxicity, MTT | – | concentration not given, 6 h, Aβ to peptide ratio 1:5, together with: Aβ1–42 2 µM | baseline: untreated cells | cell viability | 70%
CC[C@H](C)[C@H](NC(=O)[C@@H](NC(=O)[C@H](N)C(C)C)C(C)C)C(=O)N[C@@H](C)C(N)=O | PC-12 | Aβ42-induced neurotoxicity, inhibitor, MTT | – | concentration not given, 6 h, 37 °C, peptide to Aβ42 1:2, together with: Aβ42 2 µM | baseline: untreated cells | viability | 100%
5FAM-KKSRRC(Farnesyl)VLS (N-5-FAM, S-farnesyl-Cys; 5FAM = O=C1OC2(c3ccc(O)cc3Oc3cc(O)ccc32)c2ccc(C(=O)*)cc21; Farnesyl = CC(C)=CCC/C(C)=C/CC/C(C)=C/C*) | COS-1 | flow cytometry | – | 1 µM, 2 h, together with: rotenone 12 µM and 2-deoxyglucose 15 mM | baseline: normal ATP conditions | cellular uptake | no effect
Cc1ccc(C)c(/C=C/[C@]2(O)CC[C@H]3[C@@H]4CCc5cc(O)ccc5[C@H]4CC[C@@]32C)c1 | Ishikawa | alkaline phosphatase induction, agonist | – | concentration not given, 3 d | baseline: estradiol | relative stimulatory activity | 12.3%
C=CC(=O)Nc1cc2c(Nc3ccc(F)c(Cl)c3)ncnc2cc1C#CC(C)(C)N1CCN(C)CC1 | NIH3T3 in HEY/NIH microtissues | fibroblast toxicity | – | chronic toxicity, unit not given | baseline: AC50 ATP over AC50 NanoLUC, day 7 | therapeutic window | 6.03

Molecule | cell line | test | system | conditions | scale | quantity | result
COc1nc(C)cnc1NS(=O)(=O)c1cccnc1-c1ccc(-c2nnco2)cc1 | NCI-H838 | H2DCF fluorescence, item: reactive oxygen species | – | 10 µM, 0.5 h pretreatment, 0.5 h after ET-1, together with: endothelin-1 100 nM | baseline: untreated | ROS level | 116 ± 9%
VVI[dF] (D-Phe4) | PC-12 | protection from Aβ1–42 toxicity, MTT | – | concentration not given, 6 h, Aβ to peptide ratio 1:10, together with: Aβ1–42 2 µM | baseline: untreated cells | cell viability | 71.2%
Nc1nc2[nH]c(CCCc3ccc(C(=O)N[C@@H](CCC(=O)O)C(=O)O)c(F)c3)cc2c(=O)[nH]1 | R2/PCFT4 CHO expressing human PCFT | cell growth | – | – | baseline: nonfluorinated over fluorinated homologue | IC50 ratio | 6 fold
C[C@@H]1[C@]2(O[C@H]3C=C4[C@@H]5CC[C@H]6Cc7nc8c(nc7C[C@]6(C)[C@H]5C[C@@H](O)[C@]4(C)[C@]31O)C[C@@H]1CC[C@H]3C4=CC[C@@H]5[C@H](C)[C@@]6(OC[C@]45C(=O)C[C@@H]3[C@@]1(C)C8)OC(C)(C)C[C@H]6O)O[C@](C)(CO)C[C@H]2O | CHO NPC1-/- (M12) | – | – | concentration not given | baseline: wild-type CHO | antiproliferative activity change | no effect
V[dL]IA (D-Leu2) | PC-12 | protection from Aβ1–42 toxicity, MTT | – | concentration not given, 6 h, Aβ to peptide ratio 1:1, together with: Aβ1–42 2 µM | baseline: untreated cells | cell viability | 71.5%
CCn1c(C)cs/c1=N/N=C(\C)c1ccccn1 | HEp-2 | cell growth or viability, SRB | – | 100 µg/mL, 48 h | – | inhibition | 70.4%
CNC[C@H](O)c1cccc(O)c1 | hiPSC-derived 3D engineered cardiac tissue | contractility | serum-free medium | concentration not given, 15 min, paced at 1 Hz | baseline: time-matched vehicle | active force | increased
VV[dV]A (D-Val3) | PC-12 | protection from Aβ1–42 toxicity, MTT | – | concentration not given, 6 h, Aβ to peptide ratio 1:1, together with: Aβ1–42 2 µM | baseline: untreated cells | cell viability | 70%
CCN(CC)CCNC(=O)c1c(C)[nH]c(/C=C2\C(=O)Nc3ccc(F)cc32)c1C | NIH3T3 in SKOV/NIH microtissues | fibroblast toxicity | – | 168 h, chronic toxicity, unit not given | baseline: AC50 ATP over AC50 NanoLUC, day 7 | therapeutic window | 1.64
CCCCCCCCCCCCCCCCCCOc1ccccc1CC(=O)OCC[N+](CC)(CC)CC | four leukaemia cell lines | – | – | – | – | GI50 | 1290 nM
Cc1cccc(C=NNc2nc(-c3ccc(C#N)cc3)cs2)c1O | HCT-116 | colony formation | – | 10 µM, 24 h | – | inhibition | 100%
NC(=O)c1ccc(-c2nc(-c3ccc4c(c3)OCO4)c(-c3ccccn3)[nH]2)cc1 | iPSC-derived intestinal progenitor cells | item: villin 1 | – | concentration not given | baseline: DMSO | mRNA level | increased
O=C(Nc1ccc([N+](=O)[O-])cc1Cl)c1cc(Cl)ccc1O | NIH3T3 in HEY/NIH microtissues | fibroblast toxicity | – | 168 h, chronic toxicity, unit not given | baseline: AC50 ATP over AC50 NanoLUC, day 7 | therapeutic window | 0.329
CCN1C(=O)/C(=C\c2ccc(Cl)cc2)S/C1=N/N=C(\C)c1ccccn1 | HEp-2 | cell growth or viability, SRB | – | 100 µg/mL, 48 h | – | inhibition | 67.2%
N[C@@H](Cc1cc(I)c(Oc2ccc(O)c(I)c2)c(I)c1)C(=O)O | iPSC-derived intestinal progenitor cells | item: villin 1 | – | concentration not given | baseline: DMSO | mRNA level | increased
PACAP-27 | NCI-H838 | Fura-2 fluorescence, item: cytosolic Ca2+ | – | 100 nM | – | time to return to baseline | ~2 min
COc1cc(OC)c(OC)cc1C=NNc1nc(-c2ccc(C#N)cc2)cs1 | HCT-116 | colony formation | – | 5 µM, 24 h | – | inhibition | 5 to 50%
Nc1ccc(-c2ccc3ncc4ccc(=O)n(-c5cccc(C(F)(F)F)c5)c4c3c2)cn1 | NIH3T3 in SKOV/NIH microtissues | fibroblast toxicity | – | chronic toxicity, unit not given | baseline: AC50 ATP over AC50 NanoLUC, day 7 | therapeutic window | 6
CN(C)C/C=C(/c1ccc(Br)cc1)c1cccnc1 | hiPSC-derived 3D engineered cardiac tissue | contractility | serum-free medium | concentration not given, 15 min, paced at 1 Hz | baseline: time-matched vehicle | active force | decreased
CCc1ccc(C=C2SC(=S)NC2=O)cc1 | human podocytes | RT-PCR or Western blot, item: VEGF-A165b and VEGF-A165a | high glucose (diabetic) | 10 µM, 48 h | – | VEGF-A165b/VEGF-A165a ratio | 5.75
C/C(=N\N=c1/[nH]c(C)cs1)c1ccccn1 | HEp-2 | cell growth or viability, SRB | – | 100 µg/mL, 48 h | – | inhibition | 70.8%
CCCc1nn(C)c2c(=O)[nH]c(-c3cc(S(=O)(=O)N4CCN(C)CC4)ccc3OCC)nc12 | hiPSC-derived 3D engineered cardiac tissue | contractility | serum-free medium | concentration not given, 15 min, paced at 1 Hz | baseline: time-matched vehicle | active force | increased
CSTSCG | B16-F10 | – | peptide | 2 µg coated per well, 30 to 60 min | baseline: thrombospondin-coated wells | adherent cells | 37%
